# Experimental data collected from several papers.
# A part holds a random share of what one study measured.

# Study 1 — method: RNA Bind-n-Seq; molecule type: RNA; sample: in vitro; tested at: 365 nM; relative to: no-protein control; direction: higher = stronger binding
# Target: RNA binding protein fox-1 homolog 2, RRM domain, GST-SBP tag (RBFOX2, Homo sapiens, UniProt O43251-10, residues 100-194)
# Setting: natural RNA segment, single round, ends assumed
# Construct (chain): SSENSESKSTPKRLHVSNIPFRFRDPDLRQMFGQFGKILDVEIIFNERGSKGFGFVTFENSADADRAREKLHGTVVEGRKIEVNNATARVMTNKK
Sequence,RBNS enrichment (R)
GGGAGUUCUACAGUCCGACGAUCGGGACCAAGGCUGGAAAAGUGAUGAAGCUUCCUCCCACUGCUGCAAGAAAAAGGCAGAGGCUUCAGUUUUCUCUCGCCCAAGUCCCUUGCUCCUCCCAACUGCGGCUAAGUGGAAUUCUCGGGUGCCAA,1.3
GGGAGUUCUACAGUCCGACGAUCAUAGUCAGGCUGCAAAUUUCCAAACUUUUAUGCUUUGCUUCCCUUAUUUAUAAGGGAAUGCCUUUAAAAGCACCCAAGUCACCUGUUGAACACUUUGCUGCUUAGAAAUUUGGAAUUCUCGGGUGCCAA,0.266
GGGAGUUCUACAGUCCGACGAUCUCUGUACCCUGAUCUGGCAUAUAGCUUCAAAACUGCAGUGGCGAGUGUCCAUCUCUUAGUUAGCUACCUUAACUGUCCACCCUUACUACCUGUGGGAUCGUUGCCUGGUUUGGAAUUCUCGGGUGCCAA,0.413
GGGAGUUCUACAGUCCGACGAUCCCGGCCCCUGGCCCUGGGGAACAUCCCUAGAGGCCCAGAAUGGGGGUUGCUGGGUACCCCAUGCCCUGAGGGUUCCAGCACUGCUGCCAAGUGGCCUUGUCCCAGCUCCCUGGAAUUCUCGGGUGCCAA,0.231
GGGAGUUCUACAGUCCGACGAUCAUGAAAUAUUGUACUUUAAUUCAUUCAGGAAGCAAAUUGAGUGCCUAUAAGUGAGACACUGUGCUGCACUGGCUGAAGACUUAAUGCUGUUACUCUAGGUAGUUGGAUCCUGGAAUUCUCGGGUGCCAA,0.31
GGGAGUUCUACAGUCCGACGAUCAACUAUGUGGGUCUGUGAAUUUCUUUAAUGUCUAAGAAAUCCAGCUUCAUAAUUUCCAUGAUACAAAGAUCUUUUUUCAGGUGGAUUUUUACCUUUGUUCCUUUUGCUCUUGGAAUUCUCGGGUGCCAA,1.25
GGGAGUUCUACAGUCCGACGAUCAAAUGACCACUCCGUAAUAGAACAUUUCAUUCCGUCAGCUGGCCCCCACUUCCUUUCACUCACGCAUGGCCACAGCAUCUCUCUCUAGUAGCCGAGAGUGUCAUUCUCUCUGGAAUUCUCGGGUGCCAA,4.23
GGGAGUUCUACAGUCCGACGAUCUCUUUGGCCAAGGCUGGGCCUGACGGUUAUGAUUUCAGCCCUGGGCCUGCAGGAGAGGCUGAGACCAGCCCACCCAGCCAGUGGUCGAGCACUGCCCCGCCGCCAAAGUCUGGAAUUCUCGGGUGCCAA,0.761
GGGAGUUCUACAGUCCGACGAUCAAAAUUAACUCUGAAGGUCAGUCUACCUGACAUUACCUAGGCAUGGUGUUGUCCAAGCUGCGCAUCGGUGCACAGUGUGGCCUGGCACACACGCAGGCGGGCGACGGAACUGGAAUUCUCGGGUGCCAA,1.19
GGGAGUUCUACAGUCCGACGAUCAGCGAGGUCAACAGAGAAGGCAGGAAUGUGUGGCAGAUUUAGUGAAAGCUAGAGAUAUGGCAGCGAAAGGAUGUAAACAGUGCCUGCUGAAUGAUUUCCAAAGAGAAAAAUGGAAUUCUCGGGUGCCAA,2.05
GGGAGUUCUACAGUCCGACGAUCACAUACUGGAAUAUGUUUUAACAUAUGCCCCACCAUCCUGACUCACACGGAAGCACGGGUCUCUUCUCAAUCUUUGCUGCAUUUGGAAAAUGUUCCCUCCCAUCUCAGGCUGGAAUUCUCGGGUGCCAA,0.308
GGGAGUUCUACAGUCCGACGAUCGGCCCCUUCCUCGUCCUUUCCUUUUGCCUUUGAGACCAAACCAAGUGCUUCCAAAUUCUUUUGGUGCAAUUGAGGAGAUAUGCCAGAUGCUUAAACACAUUUAAUUGCUGUGGAAUUCUCGGGUGCCAA,0.346

# Study 2 — method: aptamer microarray, sandwich; molecule type: DNA with 2'F-ANA; sample: in vitro; tested at: 200 nM; with: Cy3 exosite-II aptamer, 400 nM; direction: higher = stronger binding; sequence: GGTTGGTGTGGTTGG
# Target: Prothrombin, mature alpha-thrombin (F2, Homo sapiens, UniProt P00734)
# Setting: whole 15-mer aptamer, many near background
Modification,mean fluorescence intensity
2'F-ANA at 1 2 3 4 5 7 8 10 11 14 15,48.9 a.u.
2'F-ANA at 1 6 7 10 15,68.8 a.u.
2'F-ANA at 1 2 5 6 7 9 11 13 14 15,49.9 a.u.
2'F-ANA at 2 3 4 7 10 15,300 a.u.
2'F-ANA at 1 3 4 7 8 9 13,162 a.u.
2'F-ANA at 4 7 8 11 13,267 a.u.
2'F-ANA at 3 4 5 9 11 12 13 14,82.7 a.u.
2'F-ANA at 1 2 3 4 5 6 7 10 11,58.4 a.u.
2'F-ANA at 1 3 7 8 9 14,101 a.u.
2'F-ANA at 4 5 6 9 10 12 13 14 15,45.9 a.u.
2'F-ANA at 1 2 3 6 10 11 12 15,105 a.u.
2'F-ANA at 1 3 4 5 6 8 9 11 12 14,49.4 a.u.
2'F-ANA at 7 8 9 11 12 13 15,754 a.u.
2'F-ANA at 2 3 5 7 9 11,89.9 a.u.
2'F-ANA at 1 2 4 6 8 9 12 15,250 a.u.
2'F-ANA at 1 3 4 8 10 12 13 14 15,52.1 a.u.
2'F-ANA at 1 5 9 12 14 15,47.6 a.u.
2'F-ANA at 1 3 5 8 11 14 15,71.3 a.u.
2'F-ANA at 1 2 4 5 9 12 13 15,67.6 a.u.
2'F-ANA at 3 5 7 11 12 13 15,167 a.u.
2'F-ANA at 1 4 7 9 12 13 14 15,53.7 a.u.
2'F-ANA at 1 3 4 5 6 8 12 14 15,47.7 a.u.
2'F-ANA at 1 2 3 4 6 7 10 11 12 13 15,60.6 a.u.
2'F-ANA at 1 3 4 6 9 12 14,102 a.u.
2'F-ANA at 3 4 5 6 11 14 15,52.8 a.u.

# Study 3 — method: protein binding microarray; molecule type: double-stranded DNA, one strand shown; sample: in vitro; tested at: not given; relative to: not given; direction: higher = stronger binding
# Target: Histone acetyltransferase KAT6A, winged helix 2, GST fusion (KAT6A, Homo sapiens, UniProt Q92794, residues 85-181)
# Setting: 8-mer, flanks averaged, mean of 2 arrays, mostly near background
# Target sequence (chain): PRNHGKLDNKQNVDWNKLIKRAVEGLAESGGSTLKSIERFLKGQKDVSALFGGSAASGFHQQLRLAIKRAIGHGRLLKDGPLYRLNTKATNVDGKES
Sequence,E-score
GATCAGGA,0.118
GGAGCTCC,-0.0385
AGACAACT,-0.0246
TATTTTCA,0.0893
GTGAAGCA,0.102
AGCCCAGG,0.0698
CACAGCAC,-0.0375
CGCAGGCG,0.156
GAGCGACC,0.0105
AATAAAAT,0.0947
CGTTTTAC,-0.0191
CGTGGAAA,0.0312
AACCGGCT,0.057
TATACTAA,-0.0256
GGTGCCCA,0.0613
GCCCCTAC,-0.0406
CTCAGGCA,0.116
GAAATTTC,-0.106
ACGGCTTA,0.0699
AGGCCCGA,0.0224
GATGGTAA,-0.158
CCCCCCCG,0.0225
CAAGGTTA,-0.0737
CGAGGCTA,-0.00552
ACAGCGAC,-0.113

# Study 4 — method: competition protein-binding microarray; molecule type: double-stranded DNA, one strand shown; sample: in vitro; tested at: 2 µM; with: Pho4 competitor, 0.05 µM; direction: higher = stronger binding
# Target: Centromere-binding protein 1, full length, His-tagged (CBF1, Saccharomyces cerevisiae, UniProt P17106, residues 1-351)
# Sequence of UniProt P17106 (whole entry, looked up): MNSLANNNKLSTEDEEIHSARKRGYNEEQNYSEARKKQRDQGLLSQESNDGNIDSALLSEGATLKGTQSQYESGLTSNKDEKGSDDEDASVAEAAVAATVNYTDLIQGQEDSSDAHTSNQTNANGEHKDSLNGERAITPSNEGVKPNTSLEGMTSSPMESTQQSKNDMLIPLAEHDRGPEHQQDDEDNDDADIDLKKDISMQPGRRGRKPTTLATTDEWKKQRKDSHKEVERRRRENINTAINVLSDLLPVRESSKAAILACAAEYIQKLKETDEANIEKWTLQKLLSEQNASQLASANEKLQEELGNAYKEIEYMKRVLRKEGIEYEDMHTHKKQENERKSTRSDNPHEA
# Setting: whole 60-bp probe, lowest competitor level
Sequence,fluorescence intensity
AAATTACTAAGTTGAAATGTGGGTGACGCCGTATGAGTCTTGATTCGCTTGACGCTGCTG,83.3 a.u.
CGTCCTAGTGATTGCATAGTGGGTGCCATGAGGAAGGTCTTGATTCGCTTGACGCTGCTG,83.3 a.u.
ATTTTTTTCTTGAAACACGTGAAGCCGAGGAGACCAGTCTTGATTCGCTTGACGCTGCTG,1320 a.u.
CATACCCAACCTTGACTCGTGGGTGAAGATATTTGTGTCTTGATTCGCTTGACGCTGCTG,84.4 a.u.
CAGAGTGGTTTATGTCAGGTGGTATTGCCTTGGATCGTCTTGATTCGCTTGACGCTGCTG,343 a.u.
CGTCCTAGTGATTGGCACGTGGGTGCCATGAGGAAGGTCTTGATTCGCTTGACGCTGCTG,1100 a.u.
CGGTGATAGCGGTTTCACGTGTGTTGATTGTGGTACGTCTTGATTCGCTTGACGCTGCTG,712 a.u.
CTGACGGGTTCTGGACACGTAGGCAATCCATATTGGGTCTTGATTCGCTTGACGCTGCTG,64.1 a.u.
CGTCCTAGTGATTTTCACGTGACGTCCATGAGGAAGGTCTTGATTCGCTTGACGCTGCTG,4440 a.u.
AGTGCTTTCCTTTGTCACCGGCGTAACGGATTCGCTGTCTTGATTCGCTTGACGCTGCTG,62 a.u.
CTTTGTTTTTAACATCACATGTTGTTTCCATCAGAAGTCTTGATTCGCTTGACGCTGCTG,1140 a.u.
TAGTGTGTAATGTAAAGCGTGCGATTCTTGATCTGGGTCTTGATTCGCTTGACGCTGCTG,82.4 a.u.
TTGCTAGATTCGACGACCGTGTCTGTGGTAATATTTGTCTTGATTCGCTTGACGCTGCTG,69.5 a.u.
TCCTTATCTATAGGACACGCTGTTATTTTAGTTCAAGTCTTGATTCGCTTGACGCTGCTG,107 a.u.
GTCTTGTCTCATTTTCACGTGGAATTCCCCACTTCAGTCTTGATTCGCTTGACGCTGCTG,373 a.u.
AGCAACCAAAGTACCCACGTGATTGTCTCCTGCCAAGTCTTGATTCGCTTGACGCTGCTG,2950 a.u.
CCAAGGATTGGGTGGCATGTGATATCCAGTCTTGAGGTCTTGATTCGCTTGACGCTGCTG,403 a.u.
TTTGACTGCGTCGCGGGCGTGCTGTACGACCTCGACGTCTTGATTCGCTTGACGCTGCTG,47 a.u.
GGCGGGAGGGAGCCGCATGTGCTCTATTACTTTCTTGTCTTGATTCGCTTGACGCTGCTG,93.8 a.u.
CTTCTGTAAATTTGACTTGTGGGTGGACGCGCCCCGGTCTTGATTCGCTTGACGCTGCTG,80.6 a.u.
CGGGGTTAAGTTTGTGCGGTGGGTGGCTTGCAGCAGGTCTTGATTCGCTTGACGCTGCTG,73.5 a.u.
ATTGTTAAAGTAATCCACGTGTAGTTGATTATTGATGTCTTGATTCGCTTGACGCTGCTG,684 a.u.
GTCTTGTCTCATTGATCAGTGGGTGTCCCCACTTCAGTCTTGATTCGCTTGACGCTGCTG,78.3 a.u.
AACTGTGAAAGGTTCCACGTGGCCGGGTGAGATTCGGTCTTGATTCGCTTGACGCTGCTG,588 a.u.
CGGGGTTAAGTTTGGCGGGTGGGTGGCTTGCAGCAGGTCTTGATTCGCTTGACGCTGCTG,62.2 a.u.

# Study 5 — method: universal PBM; molecule type: double-stranded DNA, one strand shown; sample: in vitro; tested at: not given; direction: higher = stronger binding
# Target: Sal-like protein 4, full length isoform B (SALL4, Homo sapiens, UniProt Q9UJQ4-2, residues 1-616)
# Setting: 8-mer, flanks averaged, mean of replicates
# Residues (chain): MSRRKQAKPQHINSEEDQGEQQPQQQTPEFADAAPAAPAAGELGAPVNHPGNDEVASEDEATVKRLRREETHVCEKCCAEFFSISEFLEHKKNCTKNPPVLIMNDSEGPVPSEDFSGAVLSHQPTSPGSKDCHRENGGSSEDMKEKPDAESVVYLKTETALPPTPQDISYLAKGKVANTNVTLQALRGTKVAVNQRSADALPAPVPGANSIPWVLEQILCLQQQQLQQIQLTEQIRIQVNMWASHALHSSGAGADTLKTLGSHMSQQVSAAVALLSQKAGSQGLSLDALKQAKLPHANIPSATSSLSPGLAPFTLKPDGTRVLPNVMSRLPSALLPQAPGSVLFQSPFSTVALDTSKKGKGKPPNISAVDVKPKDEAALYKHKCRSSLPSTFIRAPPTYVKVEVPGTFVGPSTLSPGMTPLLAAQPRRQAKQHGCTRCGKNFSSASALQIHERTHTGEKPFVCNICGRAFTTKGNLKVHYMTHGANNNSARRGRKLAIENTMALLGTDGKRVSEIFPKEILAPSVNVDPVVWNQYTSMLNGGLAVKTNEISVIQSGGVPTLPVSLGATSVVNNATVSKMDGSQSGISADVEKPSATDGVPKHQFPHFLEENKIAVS
Sequence,E-score
GGCAACCC,-0.271
ACGGTAAA,0.132
CGGGCTCA,-0.313
GCTCGAAA,-0.0587
AACTACCC,0.0679
ATGGAAAA,0.257
CTTGATGA,0.0806
GACAAGAA,0.0945
ATGCGCAC,0.00016
AGCGGCGC,-0.29
AACTTTTC,0.0967
AATTAGAC,0.242
CCAGGCGG,-0.247
CTAGAAAC,-0.0708
GACACACA,0.155
AGCTTAGC,-0.145
GCCACCCC,-0.308
AAACACCC,-0.089
GGATAAGA,0.0306
CCTCATAC,0.142
CGGTAAGC,-0.162
GGGATAGA,-0.0428
AATGTCTC,0.00812
AGGGGGCG,-0.207
CCGGCCCA,-0.279
